Measured values gathered from unrelated publications.
Numbered parts are unrelated; each lists some results of a single study.

Set 1
Target: Histone acetyltransferase KAT6A, winged helix 1, GST fusion (KAT6A, Homo sapiens, UniProt Q92794, residues 1-85)
Technique: protein binding microarray
Form: double-stranded DNA, one strand shown
Sample: in vitro
Concentration: not given
Notes: 8-mer, flanks averaged, mean of 2 arrays, mostly near background
Reference: not given
Direction: higher = stronger binding
Construct (chain): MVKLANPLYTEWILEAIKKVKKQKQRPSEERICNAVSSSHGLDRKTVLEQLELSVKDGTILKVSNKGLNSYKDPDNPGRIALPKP
| Oligonucleotide | E-score |
| --- | --- |
| ATGCACAC | -0.0743 |
| ATCTAGGC | -0.0412 |
| AAGAAATA | -0.186 |
| CTCTCGTA | -0.175 |

Set 2
Target: Sal-like protein 4, full length isoform A (SALL4, Homo sapiens, UniProt Q9UJQ4, residues 1-1053)
Sequence of UniProt Q9UJQ4 (whole entry, looked up): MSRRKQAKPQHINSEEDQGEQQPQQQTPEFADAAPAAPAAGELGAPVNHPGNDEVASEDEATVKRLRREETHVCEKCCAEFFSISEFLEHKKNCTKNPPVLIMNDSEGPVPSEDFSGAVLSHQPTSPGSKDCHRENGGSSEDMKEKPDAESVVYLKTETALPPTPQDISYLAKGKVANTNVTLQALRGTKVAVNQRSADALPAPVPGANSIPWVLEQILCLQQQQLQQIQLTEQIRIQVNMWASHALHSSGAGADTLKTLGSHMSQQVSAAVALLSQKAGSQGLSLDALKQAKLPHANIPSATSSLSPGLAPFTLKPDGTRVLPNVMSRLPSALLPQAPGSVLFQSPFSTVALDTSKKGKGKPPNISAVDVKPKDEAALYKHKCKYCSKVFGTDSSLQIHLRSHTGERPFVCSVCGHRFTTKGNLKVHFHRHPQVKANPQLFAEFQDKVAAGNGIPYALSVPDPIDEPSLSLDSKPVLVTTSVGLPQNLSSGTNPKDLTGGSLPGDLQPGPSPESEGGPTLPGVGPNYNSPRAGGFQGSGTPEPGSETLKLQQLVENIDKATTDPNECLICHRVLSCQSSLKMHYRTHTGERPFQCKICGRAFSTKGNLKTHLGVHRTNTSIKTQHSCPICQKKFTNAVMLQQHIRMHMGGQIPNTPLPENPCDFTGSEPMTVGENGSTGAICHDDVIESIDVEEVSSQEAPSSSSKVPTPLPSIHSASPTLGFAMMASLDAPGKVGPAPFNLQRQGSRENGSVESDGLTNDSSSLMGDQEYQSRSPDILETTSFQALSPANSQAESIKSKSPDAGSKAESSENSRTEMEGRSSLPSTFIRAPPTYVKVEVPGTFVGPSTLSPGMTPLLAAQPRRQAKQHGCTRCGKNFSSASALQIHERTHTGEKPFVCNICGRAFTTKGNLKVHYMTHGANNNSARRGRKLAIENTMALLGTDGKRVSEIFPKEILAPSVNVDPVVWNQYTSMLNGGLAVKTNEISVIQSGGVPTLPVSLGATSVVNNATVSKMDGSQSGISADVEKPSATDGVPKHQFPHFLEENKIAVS
Technique: universal PBM
Form: double-stranded DNA, one strand shown
Sample: in vitro
Concentration: 600 nM
Notes: 8-mer, flanks averaged, mean of replicates
Direction: higher = stronger binding
| Oligonucleotide | E-score |
| --- | --- |
| ACTAAGAT | 0.168 |
| ATTGAGGA | 0.144 |
| CCCAGGCA | -0.135 |
| CTAGGCTA | -0.116 |
| ATCTACCG | -0.0006 |

Set 3
Target: Interferon regulatory factor 5, full length, phosphomimetic (IRF5, Homo sapiens, UniProt Q13568-2, residues 1-514, K96S/S451D/S453D/S456D/S462D)
Technique: protein-binding microarray
Form: double-stranded DNA, one strand shown
Sample: in vitro
Concentration: 250 nM
Notes: 60-bp whole probe
With: salmon DNA 0.4 mg/ml
Reference: random background probes
Direction: higher = stronger binding
| Oligonucleotide | log fluorescence [z-score] |
| --- | --- |
| GCCTAGCACGACGGTATCGGTTATCGGGACGTGCTAGTCTTGATTCGCTTGACGCTGCTG | 7.03 |
| GCCTAGCACGACGGACTAGGTTTCGGGACGTGCTAGGTCTTGATTCGCTTGACGCTGCTG | 2.58 |
| GCCTAGCACGACGGTCTCCTATTCCTGACGTGCTAGGTCTTGATTCGCTTGACGCTGCTG | -0.115 |
| GCCTAGCACGACGAATTCAGTCTCGAGACGTGCTAGGTCTTGATTCGCTTGACGCTGCTG | 0.161 |

Other studies, line by line
| Substance | target | test | system | setting | scale | quantity | value |
| --- | --- | --- | --- | --- | --- | --- | --- |
| PhoQ, residues 284 288 289 292 302 303 SLCLSL | PhoP, residues 12 14 15 18 19 TPWLV (Escherichia coli, UniProt P23836) | Sort-seq, item: YFP reporter | E. coli | PhoQ-PhoP variant library, with: 10 µM Mg2+ | reference: high Mg2+ state, higher = stronger signaling | fold induction | 9.72 |
